{"data": "Measured values of several laboratories", "note": "± marks the error that the study gave."}
{"Compound": "COc1ccc2ccc3c(c2c1)C=[N+]1C2CCCCC2[N+]2=Cc4cccc(OC)c4[O][Au-]21[O]3.F[P-](F)(F)(F)(F)F (stereo not shown)", "tested on": "Klebsiella pneumoniae thioredoxin reductase", "assay": "cellular enzyme activity, inhibitor", "test system": "Klebsiella pneumoniae, carbapenem-resistant", "setting": "4 h", "quantity": "IC50", "result": "7.94 µM"}
{"Compound": "CN[C@](C)(C[18F])C(=O)O", "tested on": "DU-145 tumour model", "test system": "host not given, lung", "setting": "1 h, tumour-bearing", "quantity": "tracer uptake", "result": "1.7 %ID/g"}
{"Compound": "NC[C@@H]1O[C@H](O[C@H]2[C@@H](O)[C@H](O[C@@H]3[C@@H](O)[C@H](N)C[C@H](N)[C@H]3O[C@H]3O[C@H](CO)[C@@H](OCCO)[C@H](O)[C@H]3N)O[C@@H]2CO)[C@H](N)[C@@H](O)[C@@H]1O", "tested on": "Mycobacterium smegmatis ribosome wild type", "assay": "translation, cell-free luciferase synthesis", "quantity": "IC50", "result": "0.05 ± 0.02 µg/mL"}
{"Compound": "CC=CCC(C)C(O)C1C(=O)NC(CC)C(=O)N(C)C(OCC)C(=O)N(C)C(CC(C)(C)O)C(=O)NC(C(C)C)C(=O)N(C)C(CC(C)C)C(=O)NC(C)C(=O)NC(C)C(=O)N(C)C(CC(C)C)C(=O)N(C)C(CC(C)C)C(=O)N(C)C(C(C)C)C(=O)N1C (stereo not shown)", "tested on": "calcineurin (human)", "assay": "IL-2 production, inhibitor", "test system": "Jurkat", "setting": "6 h, added: anti-CD3/anti-CD28", "quantity": "IC50", "result": "> 1 µg/mL"}
{"Compound": "C/C=C1\\NC(=O)[C@H](Cc2ccccc2)NC(=O)[C@H](C(C)C)NC(=O)[C@H](Cc2c[nH]cn2)NC(=O)[C@H](CCC(N)=O)NC(=O)[C@H](Cc2ccc3ccccc3c2)NC(=O)[C@H]2CSC[C@@H](C(=O)N[C@@H](CO)C(=O)O)NC(=O)[C@H](CSC[C@H]3NC(=O)[C@H]([C@@H](C)CC)NC(=O)[C@H](NC(=O)[C@H](Cc4c[nH]cn4)NC(=O)[C@@H](NC(=O)[C@@H](NC(=O)CNC(=O)[C@H](CO)NC(=O)CNC(=O)CNC(=O)[C@@H](N)CCCCN)C(C)C)[C@@H](C)CC)[C@H](C)SC[C@H](NC(=O)[C@H](CCC(=O)O)NC(=O)[C@H](Cc4c[nH]cn4)NC3=O)C(=O)N[C@@H](CCCNC(=N)N)C(=O)N[C@@H](CCSC)C(=O)N[C@@H](CC(N)=O)C(=O)N2)NC1=O", "tested on": "PBP1b, Escherichia coli", "assay": "transglycosylation, inhibitor", "setting": "added: [14C]GlcNAc-labelled lipid II", "quantity": "IC50", "result": "27 ± 5.6 µM"}
{"Compound": "NC[C@@H]1O[C@H](O[C@H]2[C@@H](O)[C@H](O[C@@H]3[C@@H](O)[C@H](N)C[C@H](N)[C@H]3O[C@H]3O[C@@H]4COCO[C@H]4[C@H](O)[C@H]3N)O[C@@H]2CO)[C@H](N)[C@@H](O)[C@@H]1O", "tested on": "Mycobacterium smegmatis ribosome wild type", "assay": "translation, cell-free luciferase synthesis", "quantity": "IC50", "result": "0.89 ± 0.24 µg/mL"}
{"Compound": "COc1ccc2ccc3c(c2c1)C=[N+]1C2CCCCC2[N+]2=Cc4ccc(OCCN5CCCCC5)cc4[O][Au-]21[O]3.F[P-](F)(F)(F)(F)F (stereo not shown)", "tested on": "Klebsiella pneumoniae thioredoxin reductase", "assay": "inhibitor", "test system": "carbapenem-resistant", "setting": "added: DTNB", "quantity": "IC50", "result": "16.5 µM"}
{"Compound": "NC[C@@H]1O[C@H](O[C@H]2[C@@H](O)[C@H](O[C@@H]3[C@@H](O)[C@H](N)C[C@H](N)[C@H]3O[C@H]3O[C@H](CO)[C@@H](OCC(O)CO)[C@H](O)[C@H]3N)O[C@@H]2CO)[C@H](N)[C@@H](O)[C@@H]1O (stereo partly shown)", "tested on": "ribosome with human cytosolic A site", "assay": "luciferase translation, cell-free translation", "quantity": "IC50", "result": "25.5 ± 2.3 µg/mL"}
{"Compound": "CCCCCCCCC(=O)NCc1ccc(O)c(OC)c1", "tested on": "mAb 5-3H1", "assay": "antibody binding, indirect competitive ELISA", "setting": "added: coating antigen 5-OVA", "quantity": "IC50", "result": "0.00546 µg/mL"}
{"Compound": "C/C=C1\\NC(=O)[C@H](Cc2ccccc2)NC(=O)[C@H](C(C)C)NC(=O)[C@H](Cc2ccncc2)NC(=O)[C@H](CCC(N)=O)NC(=O)[C@H](Cc2c[nH]c3ccccc23)NC(=O)[C@H]2CSC[C@@H](C(=O)N[C@@H](CO)C(=O)O)NC(=O)[C@H](CSC[C@H]3NC(=O)[C@H]([C@@H](C)CC)NC(=O)[C@H](NC(=O)[C@H](Cc4c[nH]cn4)NC(=O)[C@@H](NC(=O)[C@@H](NC(=O)CNC(=O)[C@H](CO)NC(=O)CNC(=O)CNC(=O)[C@@H](N)CCCCN)C(C)C)[C@@H](C)CC)[C@H](C)SC[C@H](NC(=O)[C@H](CCC(=O)O)NC(=O)[C@H](Cc4c[nH]cn4)NC3=O)C(=O)N[C@@H](CCCNC(=N)N)C(=O)N[C@@H](CCSC)C(=O)N[C@@H](CC(N)=O)C(=O)N2)NC1=O", "tested on": "PBP1b, Escherichia coli", "assay": "transglycosylation, inhibitor", "setting": "added: [14C]GlcNAc-labelled lipid II", "quantity": "IC50", "result": "5.4 ± 1.2 µM"}
{"note": "A few entries again:"}
{"Compound": "C/C=C1\\NC(=O)[C@H](Cc2ccccc2)NC(=O)[C@H](C(C)C)NC(=O)[C@H](Cc2c[nH]cn2)NC(=O)[C@H](CCC(N)=O)NC(=O)[C@H](Cc2ccc3ccccc3c2)NC(=O)[C@H]2CSC[C@@H](C(=O)N[C@@H](CO)C(=O)O)NC(=O)[C@H](CSC[C@H]3NC(=O)[C@H]([C@@H](C)CC)NC(=O)[C@H](NC(=O)[C@H](Cc4c[nH]cn4)NC(=O)[C@@H](NC(=O)[C@@H](NC(=O)CNC(=O)[C@H](CO)NC(=O)CNC(=O)CNC(=O)[C@@H](N)CCCCN)C(C)C)[C@@H](C)CC)[C@H](C)SC[C@H](NC(=O)[C@H](CCC(=O)O)NC(=O)[C@H](Cc4c[nH]cn4)NC3=O)C(=O)N[C@@H](CCCNC(=N)N)C(=O)N[C@@H](CCSC)C(=O)N[C@@H](CC(N)=O)C(=O)N2)NC1=O", "tested on": "PBP1b, Escherichia coli", "assay": "transglycosylation, inhibitor", "setting": "added: [14C]GlcNAc-labelled lipid II", "quantity": "IC50", "result": "27 ± 5.6 µM"}
